Assay results from different studies.
Numbered parts are unrelated; each lists some results of a single study.

Set 1
Target: Histone acetyltransferase KAT6A, winged helix 1, GST fusion (KAT6A, Homo sapiens, UniProt Q92794, residues 1-85)
Technique: protein binding microarray
Molecule type: double-stranded DNA, one strand shown
Medium: in vitro
Concentration: not given
Setting: 8-mer, flanks averaged, mean of 2 arrays, mostly near background
Reference: not given
Direction: higher = stronger binding
Construct (chain): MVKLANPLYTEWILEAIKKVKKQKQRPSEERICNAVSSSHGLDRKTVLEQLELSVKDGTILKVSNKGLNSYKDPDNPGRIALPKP
| Sequence | E-score |
| --- | --- |
| GTGCTGCA | -0.0211 |
| ACACTGCG | 0.246 |
| ATTAGCCG | 0.253 |
| CAAATCAG | -0.24 |
| AGATAGGC | -0.223 |
| GGGATAAC | 0.0476 |
| CGTTCGGC | 0.206 |
| ACTGCCGG | 0.312 |
| ACAGATTG | -0.115 |
| GGGGGCGA | 0.0969 |
| AATGACTC | -0.137 |
| ACTTCCCT | -0.139 |
| CCTAGGTA | -0.0768 |
| ACGCTAGT | 0.157 |
| CGGCTACG | 0.385 |
| CTGGCTGC | -0.0561 |
| CAGCAGGC | 0.0517 |
| AACTCGGG | 0.125 |
| ACTGAGTG | -0.209 |
| CCCACGGG | 0.183 |
| CTTATTCC | -0.118 |
| AATGCTCG | -0.195 |
| AAACAAAT | -0.191 |
| TCCATCCA | -0.221 |
| TATCGTCA | -0.057 |

Set 2
Target: Sal-like protein 4, full length isoform B (SALL4, Homo sapiens, UniProt Q9UJQ4-2, residues 1-616)
Technique: universal PBM
Molecule type: double-stranded DNA, one strand shown
Medium: in vitro
Concentration: not given
Setting: 8-mer, flanks averaged, mean of replicates
Direction: higher = stronger binding
| Sequence | E-score |
| --- | --- |
| AACCGCGA | -0.0736 |
| AGTCGACG | -0.107 |
| GGGAAAAA | 0.0982 |
| ATCTTTAC | 0.211 |
| ACCATAAC | 0.257 |
| CAAGCAGA | 0.0177 |
| TGAATAAA | 0.244 |
| CCCGCCAC | -0.148 |
| CTCAACGA | -0.0488 |
| GAACTCCA | -0.058 |
| TCATTGAA | 0.172 |
| ACTGGCAT | -0.138 |
| TGTAGTAA | 0.277 |
| CGGACACG | -0.228 |
| GGTGGCAA | -0.162 |
| GATCACGA | 0.00048 |
| GCGAAGGA | -0.112 |
| GTGGAGAA | -0.0853 |
| CCCGGACA | -0.221 |
| AGATAATG | 0.266 |
| AGCAAATC | 0.116 |
| AAGACCTT | 0.0566 |
| ACCCCCTA | -0.084 |
| AGGCAGTG | -0.0705 |
| TAGCAACA | 0.142 |

Set 3
Target: RING finger protein unkempt homolog, zinc fingers 1-6, GST-SBP tag (UNK, Homo sapiens, UniProt Q9C0B0, residues 30-357)
Technique: RNA Bind-n-Seq
Molecule type: RNA
Medium: in vitro
Concentration: not given
Setting: RNA with constant flanks, human and mouse sites, ends assumed
Reference: input RNA pool
Direction: higher = stronger binding
Target sequence (chain): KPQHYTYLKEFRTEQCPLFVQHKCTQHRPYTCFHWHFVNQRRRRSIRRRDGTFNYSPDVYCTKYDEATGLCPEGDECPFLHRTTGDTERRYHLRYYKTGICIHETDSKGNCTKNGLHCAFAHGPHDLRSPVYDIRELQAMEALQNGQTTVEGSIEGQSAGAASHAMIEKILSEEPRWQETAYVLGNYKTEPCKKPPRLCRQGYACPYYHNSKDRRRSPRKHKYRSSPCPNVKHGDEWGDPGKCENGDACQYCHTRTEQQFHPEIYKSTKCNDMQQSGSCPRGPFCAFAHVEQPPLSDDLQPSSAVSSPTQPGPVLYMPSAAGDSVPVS
| Sequence | bound/input enrichment [ratio] |
| --- | --- |
| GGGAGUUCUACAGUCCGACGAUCUCUUACUCAGGGGAAAAUACAGAAGCUUGGUACCCUCCAGGUCAUGGUGAUAUUUACGCCAGUUUCUACAACUCUGGAUUGCUUGAUACCUUUAUAGGAGAAGGCAAAGAGUAUAUUUUUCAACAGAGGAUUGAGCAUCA | 0.14 |
| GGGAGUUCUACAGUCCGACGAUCGAGAACAAUGUUUUGAUUCAGUAUACUAAUGCAUGUGUAAAAGUUUGUGUUUAUGUAAGAAAACAAGUUGAGAAGAUUAAAAAUUCCAUGGAUGGGAAGAAUGUGGACACAGUUCUGAUGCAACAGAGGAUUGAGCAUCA | 0.18 |
| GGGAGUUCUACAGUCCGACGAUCCCUUCCUUUUGAAAGCUGAAUUCCAUUGCAUCUGAAGAAGCCUCUCUCAGGGCAUUGGAAAGUCUGAUGACAGAAUUUUUUCACGAUUGUACAACCAAUGAAAGAAAACGUGAGAUAGAGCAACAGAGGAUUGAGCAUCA | 0.209 |
| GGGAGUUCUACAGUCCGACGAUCAAGAUUUAAUAUAUAAAGAUUUAAUAUGAGUUAAACAUGUUUCUUAUUCUGUGAUCUCUAAUUAGAAAGUAAAAUUCUGUUGCCAUAAAUAUAAAAGAAAGUUUUCACUUAUAUUUUAGUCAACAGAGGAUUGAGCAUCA | 4.94 |
| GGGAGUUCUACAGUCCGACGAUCUCUAAAAGGAAAAAAAAGUAGUGUAUUUUAUAUUUCCAUAUGCUAAUGACAUGUCUGUAAUUAGUCUUCAGUGUUCCAUAAGAAGAGAGUGAUGGUACAAGUAUCCCUAAGUAUCACUUUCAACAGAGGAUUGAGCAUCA | 1.24 |
| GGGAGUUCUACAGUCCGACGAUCUUGGUGAUUGGCAGGAUCCUGGUAUCCGCUAACAGGUCAAAAUGCAGAUCUUCGUGAAAACCCUUACCGGCAAGACCAUCACCCUUGAGGUGGAGCCCAGUGACACCAUCGAAAAUGUGACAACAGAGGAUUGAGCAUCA | 0.0847 |
| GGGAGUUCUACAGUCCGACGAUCCUGAUGGGACUACUGGAAUCAGGCUUGGUUCAUUUUAAUGAAAAUCACAUAAAGUCAUUUAUGAGACAGCUCAUGGAGGGUCUGGAUUAUUGUCAUAAGAAGAACUUUUUGCAUAGAGAUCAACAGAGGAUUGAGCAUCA | 0.32 |
| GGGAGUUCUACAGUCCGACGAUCGAGCACAUGAAGGAGUCGACAUUGGAAGCCAUCGGUUAUAUUUGCCAAGAUAUAGACCCAGAGCAGCUACAAGAUAAAUCCAAUGAGAUUCUGACUGCCAUAAUCCAGGGGAUGAGGAAACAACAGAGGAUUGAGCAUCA | 0.18 |
| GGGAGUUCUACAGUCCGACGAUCAUUAAAACAACAAACGAAACCUAGUGAAGCAUCUUUUUAAAAGGCUGCCAGCUUAAUGAAUUUAGAUGUACUUUAAGAGAGAAAGACUGGUUAUUUCUCCUUUGUGUAAGUGAUAAACAACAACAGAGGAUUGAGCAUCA | 0.504 |
| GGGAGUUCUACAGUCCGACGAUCGAAAACUAUAGGAUGAUCAAAAAAUCAGGUGAAUCAUAUCCUGUGCAUUUCAAAAAAGAAGAAGCUAGUUCAUUAAAUUCUUUACACCUGUUUUCAUCAUCAAGUAAUUCUCACAACAAUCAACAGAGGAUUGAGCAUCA | 0.979 |
| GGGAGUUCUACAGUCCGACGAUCUCUGGAGUUCUUAAUGAUAGUUUGUCUGGUGGAAUGCAGUUGCUUCCAGAUCCUUUAUAUUCUCUUCCUACUGAUAAUACUUACCUUUUAACAAUAACUUCCACUGAUAAUGGCAGAAUUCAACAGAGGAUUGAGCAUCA | 0.772 |

Set 4
Target: RNA binding protein fox-1 homolog 2, RRM domain, GST-SBP tag (RBFOX2, Homo sapiens, UniProt O43251-10, residues 100-194)
Technique: RNA Bind-n-Seq
Molecule type: RNA
Medium: in vitro
Concentration: 365 nM
Setting: natural RNA segment, single round, ends assumed
Reference: no-protein control
Direction: higher = stronger binding
Residues (chain): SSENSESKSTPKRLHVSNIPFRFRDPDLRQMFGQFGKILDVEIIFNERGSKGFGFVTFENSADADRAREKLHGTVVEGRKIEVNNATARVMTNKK
| Sequence | RBNS enrichment (R) |
| --- | --- |
| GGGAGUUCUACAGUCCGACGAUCCAUGCCAGUGGGUGUGACUCCUUCAUUUUUCCUUCUCCCUUCCCUUUGGACAGUGUUACAGUGAACACUUAGCAUCCUGUUUUUGGUUGGUAGUUAAGCAAACUGACAUUUGGAAUUCUCGGGUGCCAA | 0.358 |
| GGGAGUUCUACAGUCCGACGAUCGAAUAUUUUUGUACCUGAUGUUUCCAGAUGUUGGGAAGUUAUCAAUAAAGACUGUUGUUAAAAGGGACACUUAUAGCAACAGUGGCUUGCUUCUGUUUUUGGGCCUCACAUGGAAUUCUCGGGUGCCAA | 1.33 |
| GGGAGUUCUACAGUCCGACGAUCCAAAACAUUCACCCGUAAUAGACUGAGAAUUGAGCCUUAACUUCAGAUUAACUUGUGAGAAUCAGGAAAAUUCCUUCAACUGCAUUGCAUCCUCUUGGACCAGGGCUAGAUGGAAUUCUCGGGUGCCAA | 1.95 |
| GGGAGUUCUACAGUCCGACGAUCUUGAGGCUUAAACAAGCCAACAUAUGAAUAUAUGUUUUGUCUCGCUAUACUGCACUUACGCUAUCCAGUUGCAGGUAAUUUUUUGUCUGCUAGUAGUGUUCUAGAUUAUGUGGAAUUCUCGGGUGCCAA | 0.405 |
| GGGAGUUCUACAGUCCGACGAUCGACUCCAGCGACUGCACACCCGCUCUGUGCUGCGGCCAGGGAGGGUGAGAACCAUCGCUCCUUUGCCAGGUAACUCUUGGGAGCCUCUCCCCCUUCUGCAUAGAGGAAAUUGGAAUUCUCGGGUGCCAA | 0.248 |
| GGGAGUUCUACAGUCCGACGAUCAUGCAAUAAGUUCCUAGGUAGUCUACCCUUACCUUGAGGAAUGGGAAAAUGAACCUCAGCCCAUUAGGCAGGAAAAGUUGAUAUUUAAUAAACAAGGAAAGAGUGAACUGUGGAAUUCUCGGGUGCCAA | 0.421 |
| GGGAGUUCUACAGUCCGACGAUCUGUGACUCCAGUAUAUCUUACCUGUACUGACCAAACCUAAAUAAAGAUUUUUAUUGUAACUCCUUAAUUAGCUUUUUUGUUUUGUUUUGGGUGUAUGUUUAGCAUUUGUCUGGAAUUCUCGGGUGCCAA | 0.571 |
| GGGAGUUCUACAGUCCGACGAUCAAAGGUUAUUUGCUCCCGAUUAUAUGAUUCAAGUGUUAUAAGUUUUAGCUUGAACUACUUUGCAGUAAUUUAUUUGACAGAUCUCUAUUCUAUAAAUGUGUAAUGUGAUGUGGAAUUCUCGGGUGCCAA | 0.943 |
| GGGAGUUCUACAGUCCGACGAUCUACUUCUGUUCCAUGGUGUGCAGGUCUGCUUCUUAAUUCAGUGUUAUGAUAUCUUCCAGUUUUUGCUUUCAUAGGUCAGAGAUCUAUCUUGUGUGUGCGUUAGACUUGAUUGGAAUUCUCGGGUGCCAA | 0.503 |

A few entries again (set 1):
| Sequence | E-score |
| --- | --- |
| AACTCGGG | 0.125 |
| TCCATCCA | -0.221 |
| CTTATTCC | -0.118 |
| GGGATAAC | 0.0476 |
| ACGCTAGT | 0.157 |
| ATTAGCCG | 0.253 |
| CCTAGGTA | -0.0768 |
| GTGCTGCA | -0.0211 |
